Results pooled from the literature.
Compare with care: the assays were run in different laboratories. Values joined by “and” are separate records of one study, mostly repeats; a detail may differ. Numbers after ± are the reported error.
S: Spike glycoprotein (S, Human coronavirus NL63, UniProt Q6Q1S2)
Chain of UniProt Q6Q1S2 (whole entry, looked up): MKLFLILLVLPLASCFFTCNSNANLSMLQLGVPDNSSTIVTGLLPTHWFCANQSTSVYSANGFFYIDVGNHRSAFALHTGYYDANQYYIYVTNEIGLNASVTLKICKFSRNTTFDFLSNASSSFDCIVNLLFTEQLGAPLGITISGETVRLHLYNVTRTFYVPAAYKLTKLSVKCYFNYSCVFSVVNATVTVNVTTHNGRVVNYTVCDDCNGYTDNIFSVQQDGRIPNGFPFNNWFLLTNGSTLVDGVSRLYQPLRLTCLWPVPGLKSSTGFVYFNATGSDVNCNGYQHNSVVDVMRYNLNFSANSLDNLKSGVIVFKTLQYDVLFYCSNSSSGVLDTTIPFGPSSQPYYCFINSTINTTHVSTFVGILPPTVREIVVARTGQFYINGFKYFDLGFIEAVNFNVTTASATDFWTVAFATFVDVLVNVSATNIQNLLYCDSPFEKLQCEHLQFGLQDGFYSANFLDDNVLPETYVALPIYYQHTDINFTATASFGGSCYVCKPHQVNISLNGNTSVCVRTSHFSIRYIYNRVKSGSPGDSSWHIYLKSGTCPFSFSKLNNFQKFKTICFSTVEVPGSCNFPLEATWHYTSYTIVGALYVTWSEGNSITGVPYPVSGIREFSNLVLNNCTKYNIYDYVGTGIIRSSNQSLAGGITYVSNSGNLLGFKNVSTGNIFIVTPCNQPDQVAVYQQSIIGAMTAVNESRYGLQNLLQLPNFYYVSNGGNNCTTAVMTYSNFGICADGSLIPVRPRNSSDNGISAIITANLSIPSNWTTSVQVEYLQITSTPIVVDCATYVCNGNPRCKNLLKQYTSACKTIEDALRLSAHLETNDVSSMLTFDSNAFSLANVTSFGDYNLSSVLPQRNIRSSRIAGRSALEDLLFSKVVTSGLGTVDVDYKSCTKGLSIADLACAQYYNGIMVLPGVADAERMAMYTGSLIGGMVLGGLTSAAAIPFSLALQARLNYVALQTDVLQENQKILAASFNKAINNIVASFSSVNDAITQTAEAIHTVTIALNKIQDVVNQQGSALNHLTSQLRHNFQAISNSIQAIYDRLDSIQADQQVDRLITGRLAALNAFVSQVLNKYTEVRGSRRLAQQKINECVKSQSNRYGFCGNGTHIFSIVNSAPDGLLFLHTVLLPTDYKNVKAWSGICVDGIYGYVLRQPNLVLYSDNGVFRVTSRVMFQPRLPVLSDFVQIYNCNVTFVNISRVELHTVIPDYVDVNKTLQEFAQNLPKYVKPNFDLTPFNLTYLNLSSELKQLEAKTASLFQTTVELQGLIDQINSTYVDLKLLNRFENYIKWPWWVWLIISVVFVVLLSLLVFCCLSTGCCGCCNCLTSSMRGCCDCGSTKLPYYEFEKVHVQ
CHRNA7: Neuronal acetylcholine receptor subunit alpha-7 (CHRNA7, Homo sapiens, UniProt P36544)
Chain of UniProt P36544 (whole entry, looked up): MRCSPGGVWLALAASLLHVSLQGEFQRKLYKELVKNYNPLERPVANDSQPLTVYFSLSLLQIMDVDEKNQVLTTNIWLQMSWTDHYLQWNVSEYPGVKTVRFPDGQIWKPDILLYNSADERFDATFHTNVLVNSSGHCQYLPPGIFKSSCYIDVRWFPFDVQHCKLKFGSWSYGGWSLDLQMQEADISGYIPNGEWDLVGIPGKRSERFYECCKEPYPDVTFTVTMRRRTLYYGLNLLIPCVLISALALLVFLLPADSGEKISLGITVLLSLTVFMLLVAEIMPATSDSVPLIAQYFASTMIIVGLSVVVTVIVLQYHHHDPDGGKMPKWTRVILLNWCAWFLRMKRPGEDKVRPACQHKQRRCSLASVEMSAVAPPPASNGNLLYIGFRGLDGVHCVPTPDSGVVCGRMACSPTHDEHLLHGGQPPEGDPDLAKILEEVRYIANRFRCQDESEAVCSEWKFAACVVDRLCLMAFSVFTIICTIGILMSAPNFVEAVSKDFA
Chain of UniProt Q14524 (whole entry, looked up): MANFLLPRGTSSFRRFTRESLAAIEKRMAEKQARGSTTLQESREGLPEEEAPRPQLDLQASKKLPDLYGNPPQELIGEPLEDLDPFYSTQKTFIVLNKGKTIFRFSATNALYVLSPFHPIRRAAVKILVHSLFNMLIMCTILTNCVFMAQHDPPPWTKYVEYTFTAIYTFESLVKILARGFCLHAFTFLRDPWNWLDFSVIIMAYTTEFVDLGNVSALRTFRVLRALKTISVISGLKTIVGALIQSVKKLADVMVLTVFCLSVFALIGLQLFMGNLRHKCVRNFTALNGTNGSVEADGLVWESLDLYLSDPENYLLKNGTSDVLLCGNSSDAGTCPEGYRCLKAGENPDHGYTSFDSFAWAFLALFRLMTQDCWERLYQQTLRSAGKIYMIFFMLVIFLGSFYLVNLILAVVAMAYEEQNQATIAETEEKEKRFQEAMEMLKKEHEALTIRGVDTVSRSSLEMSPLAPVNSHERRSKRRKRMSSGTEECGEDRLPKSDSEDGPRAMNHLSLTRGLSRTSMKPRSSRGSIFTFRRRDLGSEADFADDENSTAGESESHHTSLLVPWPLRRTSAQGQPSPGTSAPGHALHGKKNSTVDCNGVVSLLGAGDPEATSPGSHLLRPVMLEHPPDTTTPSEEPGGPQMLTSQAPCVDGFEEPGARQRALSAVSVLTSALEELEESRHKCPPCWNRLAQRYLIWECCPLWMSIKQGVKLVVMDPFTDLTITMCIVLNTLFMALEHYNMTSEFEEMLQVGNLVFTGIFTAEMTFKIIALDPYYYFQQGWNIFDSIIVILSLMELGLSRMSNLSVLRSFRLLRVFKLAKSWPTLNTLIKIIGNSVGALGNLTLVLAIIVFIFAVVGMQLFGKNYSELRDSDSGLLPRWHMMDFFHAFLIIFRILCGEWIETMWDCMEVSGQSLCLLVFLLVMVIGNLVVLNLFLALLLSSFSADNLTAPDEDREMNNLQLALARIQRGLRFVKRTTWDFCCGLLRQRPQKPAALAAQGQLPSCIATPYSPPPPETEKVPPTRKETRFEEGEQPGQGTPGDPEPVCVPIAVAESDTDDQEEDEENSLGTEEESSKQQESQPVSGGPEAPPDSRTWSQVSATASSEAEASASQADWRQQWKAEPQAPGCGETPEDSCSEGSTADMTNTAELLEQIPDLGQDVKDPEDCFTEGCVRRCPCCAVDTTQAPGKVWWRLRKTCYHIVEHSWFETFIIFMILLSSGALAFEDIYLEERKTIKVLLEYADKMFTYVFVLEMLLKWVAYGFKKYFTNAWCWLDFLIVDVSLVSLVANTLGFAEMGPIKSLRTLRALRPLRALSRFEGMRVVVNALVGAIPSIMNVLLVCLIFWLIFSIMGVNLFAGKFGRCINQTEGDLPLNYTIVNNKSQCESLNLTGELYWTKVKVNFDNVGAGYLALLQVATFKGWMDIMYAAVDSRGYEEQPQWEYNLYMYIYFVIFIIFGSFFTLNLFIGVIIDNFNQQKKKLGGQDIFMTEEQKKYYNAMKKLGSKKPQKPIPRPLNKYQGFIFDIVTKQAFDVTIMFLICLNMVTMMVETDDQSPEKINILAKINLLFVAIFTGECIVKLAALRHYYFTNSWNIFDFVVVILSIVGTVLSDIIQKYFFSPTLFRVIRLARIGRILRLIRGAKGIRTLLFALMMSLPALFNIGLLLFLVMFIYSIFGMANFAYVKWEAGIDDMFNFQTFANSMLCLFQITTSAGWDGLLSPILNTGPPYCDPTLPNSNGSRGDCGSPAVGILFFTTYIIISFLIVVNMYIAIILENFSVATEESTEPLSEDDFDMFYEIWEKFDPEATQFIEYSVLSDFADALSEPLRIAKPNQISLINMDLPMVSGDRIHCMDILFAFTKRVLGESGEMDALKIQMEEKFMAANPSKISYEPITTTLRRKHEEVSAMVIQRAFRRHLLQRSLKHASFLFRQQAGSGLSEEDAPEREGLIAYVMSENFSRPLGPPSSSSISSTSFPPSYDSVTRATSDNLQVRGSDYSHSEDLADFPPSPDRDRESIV
Chain of UniProt P22459 (whole entry, looked up): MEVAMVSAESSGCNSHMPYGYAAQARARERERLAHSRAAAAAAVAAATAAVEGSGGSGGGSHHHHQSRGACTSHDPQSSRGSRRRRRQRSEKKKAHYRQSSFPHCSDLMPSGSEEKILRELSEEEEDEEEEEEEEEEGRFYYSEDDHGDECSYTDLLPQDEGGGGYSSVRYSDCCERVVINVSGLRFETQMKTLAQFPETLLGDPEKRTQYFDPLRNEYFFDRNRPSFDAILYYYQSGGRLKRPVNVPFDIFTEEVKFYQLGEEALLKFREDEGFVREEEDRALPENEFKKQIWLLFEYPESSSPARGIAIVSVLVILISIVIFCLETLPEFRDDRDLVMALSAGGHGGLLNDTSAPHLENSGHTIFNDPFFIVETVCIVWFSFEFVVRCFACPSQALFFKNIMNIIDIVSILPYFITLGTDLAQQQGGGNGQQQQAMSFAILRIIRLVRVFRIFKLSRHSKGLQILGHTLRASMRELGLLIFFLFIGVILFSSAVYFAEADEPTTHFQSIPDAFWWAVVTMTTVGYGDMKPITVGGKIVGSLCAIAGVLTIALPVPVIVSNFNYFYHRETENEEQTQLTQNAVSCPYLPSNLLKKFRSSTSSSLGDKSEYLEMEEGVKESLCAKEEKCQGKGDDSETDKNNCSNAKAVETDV

| Structure (SMILES) | target or system | test | system | setting | scale | measurement | value |
| --- | --- | --- | --- | --- | --- | --- | --- |
| CC[C@H](C)[C@H](NC(=O)[C@H](CC(C)C)NC(=O)[C@H](Cc1c[nH]c2ccccc12)NC(=O)[C@H](CCC(N)=O)NC(=O)[C@@H](NC(=O)[C@H](Cc1ccccc1)NC(=O)[C@H](C)NC(=O)[C@H](CCCCNC(=O)COCCOCCNC(=O)COCCOCCNC(=O)CC[C@H](NC(=O)CCCCCCCCCCCCCCCCCCC(=O)O)C(=O)O)NC(=O)[C@H](CCC(N)=O)NC(=O)[C@H](C)NC(=O)[C@@H](NC(=O)[C@H](CCCCN)NC(=O)[C@H](CC(=O)O)NC(=O)[C@H](CC(C)C)NC(=O)C(C)(C)NC(=O)[C@@H](NC(=O)[C@H](CO)NC(=O)[C@H](Cc1ccc(O)cc1)NC(=O)[C@H](CC(=O)O)NC(=O)[C@H](CO)NC(=O)[C@@H](NC(=O)[C@H](Cc1ccccc1)NC(=O)[C@@H](NC(=O)CNC(=O)[C@H](CCC(=O)O)NC(=O)C(C)(C)NC(=O)[C@@H](N)Cc1ccc(O)cc1)[C@@H](C)O)[C@@H](C)O)[C@@H](C)CC)[C@@H](C)CC)C(C)C)C(=O)N[C@@H](C)C(=O)NCC(=O)NCC(=O)N1CCC[C@H]1C(=O)N[C@@H](CO)C(=O)N[C@@H](CO)C(=O)NCC(=O)N[C@@H](C)C(=O)N1CCC[C@H]1C(=O)N1CCC[C@H]1C(=O)N1CCC[C@H]1C(=O)N[C@@H](CO)C(N)=O |  |  | healthy subjects | all MAD doses |  | subjects with application site erythema | 0% |
| Nc1ncnc2c([C@@H]3N[C@H](CO)[C@@H](O)[C@H]3O)c[nH]c12 | Nipah henipavirus | viral replication | HeLa, Malaysia | 3.1 µM |  | inhibition | 1.4% |
| Cn1cnc(Cn2c(=O)[nH]/c(=N\c3cc4cn(C)nc4cc3Cl)n(Cc3cc(F)c(F)cc3F)c2=O)n1 |  |  | human, severe renal impairment | oral, 375 mg, hypertriglyceridaemia TEAE, Severe severity |  | patients with adverse event | 0% |
| NCCc1c(SSc2[nH]c3cc(Br)ccc3c2CCN)[nH]c2cc(Br)ccc12 | KCNA4 (Homo sapiens, UniProt P22459) | peak potassium current, inhibitor, automated whole-cell patch clamp | CHO-K1, tetracycline-inducible |  |  | IC50 | 1100 nM |
| COc1cc(NC(=O)c2ccc(-c3ccc(Cl)cc3)o2)cc(OC)c1 | SCN5A (Homo sapiens, UniProt Q14524) | late sodium current, whole-cell voltage clamp | ND7/23 transfected | pH 7.4, TTX 200 nM, added: ATX-II 100 nM |  | IC50 | ~5000 nM |
| CC[C@H](C)[C@H](NC(=O)[C@H](CC(=O)O)NC(=O)[C@H](CCCCN)NC(=O)[C@H](CC(C)C)NC(=O)[C@H](CC(N)=O)NC(=O)[C@@H](NC(=O)[C@H](Cc1ccc(O)cc1)NC(=O)[C@H](CO)NC(=O)[C@H](CCC(N)=O)NC(=O)[C@H](CCC(=O)O)NC(=O)[C@H](CC(C)C)NC(=O)[C@H](CCCCN)NC(=O)[C@H](CCCCN)NC(=O)[C@@H](NC(=O)[C@H](C)NC(=O)[C@H](CCC(=O)O)NC(=O)[C@H](CCC(=O)O)NC(=O)[C@H](CC(C)C)NC(=O)[C@H](CCCCN)NC(=O)[C@H](CCCCN)NC(=O)[C@H](CCSC)NC(=O)[C@H](CCC(=O)O)NC(=O)[C@H](CC(=O)O)NC(=O)[C@H](CCC(N)=O)NC(=O)[C@H](CC(C)C)NC(=O)[C@H](CC(=O)O)NC(=O)[C@H](CC(C)C)NC(=O)[C@H](Cc1ccccc1)NC(=O)[C@@H](NC(=O)[C@@H](NC(=O)[C@H](CC(N)=O)NC(=O)[C@@H](NC(=O)[C@H](Cc1ccc(O)cc1)NC(=O)[C@H](CC(=O)O)NC(=O)[C@H](CC(C)C)NC(=O)[C@@H](N)CO)[C@@H](C)CC)C(C)C)[C@@H](C)O)[C@@H](C)CC)[C@@H](C)CC)C(=O)O | S |  |  |  |  | IC50 | 780 ± 100 nM |
| C=C1CCCC2=NC[C@H](C)[C@@H](C)C[C@@]23CCC(C(=O)O)=C[C@@H]3[C@@H]2O[C@]3(C[C@H]4CCC[C@@]5(CC[C@@]6(O[C@@H](CC[C@@]6(C)O)C1)O5)O4)C[C@@H](C)[C@@H](O)[C@H]2O3 | CHRNA7 | ion current, antagonist, two-electrode voltage clamp |  | oocytes |  | IC50 | 0.107 nM |
| CCc1c2c(nc3ccc(OC(=O)N4CCC(N5CCCCC5)CC4)cc13)-c1cc3c(c(=O)n1C2)COC(=O)[C@]3(O)CC | Spike glycoprotein (Severe acute respiratory syndrome coronavirus 2, UniProt P0DTC2) | binding, biolayer interferometry |  |  |  | Kd | 59800 nM |
| CCOP(=O)(OCC)Oc1ccc([N+](=O)[O-])cc1 | rat liver carboxylesterase | enzyme activity, inhibitor | rat, postnatal day 1, liver homogenate | added: p-nitrophenyl valerate |  | IC50 | 0.13 nM |
| Cc1cn([C@H]2C[C@H](N=[N+]=[N-])[C@@H](CO[P@](=O)(O)O[P@](=O)(O)OP(=O)(O)O)O2)c(=O)[nH]c1=O | Gag-Pol polyprotein, reverse transcriptase (gag-pol, Human immunodeficiency virus type 1 group M subtype B, UniProt P04585, K653A) | inhibitor | HIV-1 |  |  | IC50 | 559 nM |
| CNC(=O)[C@@H](NC(=O)[C@H](CC(C)C)[C@H](O)C(=O)NO)C(C)(C)C | Daboia russelii venom proteases (SVMP) | protease activity, inhibitor | RJ population | 0.1 µM, added: azocasein substrate | reference: venom alone | remaining activity | 99.7% and 100% |
| CC[C@H](C)[C@H](NC(=O)[C@H](CCC(=O)O)NC(=O)[C@H](CCCCN)NC(=O)[C@H](CC(C)C)NC(=O)[C@H](CC(N)=O)NC(=O)[C@@H](NC(=O)[C@H](Cc1ccc(O)cc1)NC(=O)[C@H](CO)NC(=O)[C@H](CCC(=O)O)NC(=O)[C@H](CCC(=O)O)NC(=O)[C@H](CC(C)C)NC(=O)[C@H](CCCCN)NC(=O)[C@H](CCCCN)NC(=O)[C@@H](NC(=O)[C@H](C)NC(=O)[C@H](CCC(=O)O)NC(=O)[C@H](CCC(=O)O)NC(=O)[C@H](CC(C)C)NC(=O)[C@H](CCCCN)NC(=O)[C@H](CCCCN)NC(=O)[C@H](CCSC)NC(=O)[C@H](CCC(=O)O)NC(=O)[C@H](CC(=O)O)NC(=O)[C@H](CCC(=O)O)NC(=O)[C@H](CC(C)C)NC(=O)[C@H](CC(=O)O)NC(=O)[C@H](CC(C)C)NC(=O)[C@H](Cc1ccccc1)NC(=O)[C@@H](NC(=O)[C@@H](NC(=O)[C@H](CC(N)=O)NC(=O)[C@@H](NC(=O)[C@H](Cc1ccc(O)cc1)NC(=O)[C@H](CC(=O)O)NC(=O)[C@H](CC(C)C)NC(=O)[C@@H](N)CO)[C@@H](C)CC)C(C)C)[C@@H](C)O)[C@@H](C)CC)[C@@H](C)CC)C(=O)O | S |  |  |  |  | IC50 | 630 ± 120 nM |
| O=C(O)C(=O)C=C(O)c1cn(Cc2ccc(F)cc2)c2cc(N3CCCC3)ccc2c1=O | Gag-Pol polyprotein, integrase (gag-pol, Human immunodeficiency virus 1, UniProt P12497, N1302H) | concerted integration, inhibitor, refers to: donor-donor products |  | 3 h, 37 °C |  | IC50 | 260 ± 91 nM |
| C=CC1=C[C@@H]2[C@@H]3O[C@]4(C[C@H]5CCC[C@@]6(CC[C@@]7(O[C@@H](CC[C@@]7(C)O)CC(=C)CCCC7=NC[C@H](C)[C@@H](C)C[C@@]72CC1)O6)O5)C[C@@H](C)[C@@H](O)[C@H]3O4 | CHRNA7 | ion current, antagonist, two-electrode voltage clamp |  | oocytes |  | IC50 | 5.06 nM |
| C[C@H](Cn1cnc2c(N)ncnc21)OCP(=O)(O)O | Gag-Pol polyprotein, reverse transcriptase (gag-pol, Human immunodeficiency virus type 1 group M subtype B, UniProt P04585, K653R) | inhibitor | HIV-1 |  |  | IC50 | 1056 ± 1.22 nM |
| C[C@]12CC[C@H](O)C[C@H]1CC[C@@H]1[C@@H]2CC[C@]2(C)[C@@H](C3=CC(=O)OC3)CC[C@]12O | Na+/K+-ATPase, pig | ATP hydrolysis, inhibitor |  |  |  | IC50 | 97 nM |

Repeated from above:
| Structure (SMILES) | target or system | test | system | setting | scale | measurement | value |
| --- | --- | --- | --- | --- | --- | --- | --- |
| CC[C@H](C)[C@H](NC(=O)[C@H](CC(C)C)NC(=O)[C@H](Cc1c[nH]c2ccccc12)NC(=O)[C@H](CCC(N)=O)NC(=O)[C@@H](NC(=O)[C@H](Cc1ccccc1)NC(=O)[C@H](C)NC(=O)[C@H](CCCCNC(=O)COCCOCCNC(=O)COCCOCCNC(=O)CC[C@H](NC(=O)CCCCCCCCCCCCCCCCCCC(=O)O)C(=O)O)NC(=O)[C@H](CCC(N)=O)NC(=O)[C@H](C)NC(=O)[C@@H](NC(=O)[C@H](CCCCN)NC(=O)[C@H](CC(=O)O)NC(=O)[C@H](CC(C)C)NC(=O)C(C)(C)NC(=O)[C@@H](NC(=O)[C@H](CO)NC(=O)[C@H](Cc1ccc(O)cc1)NC(=O)[C@H](CC(=O)O)NC(=O)[C@H](CO)NC(=O)[C@@H](NC(=O)[C@H](Cc1ccccc1)NC(=O)[C@@H](NC(=O)CNC(=O)[C@H](CCC(=O)O)NC(=O)C(C)(C)NC(=O)[C@@H](N)Cc1ccc(O)cc1)[C@@H](C)O)[C@@H](C)O)[C@@H](C)CC)[C@@H](C)CC)C(C)C)C(=O)N[C@@H](C)C(=O)NCC(=O)NCC(=O)N1CCC[C@H]1C(=O)N[C@@H](CO)C(=O)N[C@@H](CO)C(=O)NCC(=O)N[C@@H](C)C(=O)N1CCC[C@H]1C(=O)N1CCC[C@H]1C(=O)N1CCC[C@H]1C(=O)N[C@@H](CO)C(N)=O |  |  | healthy subjects | all MAD doses |  | subjects with application site erythema | 0% |
| CNC(=O)[C@@H](NC(=O)[C@H](CC(C)C)[C@H](O)C(=O)NO)C(C)(C)C | Daboia russelii venom proteases (SVMP) | protease activity, inhibitor | RJ population | 0.1 µM, added: azocasein substrate | reference: venom alone | remaining activity | 99.7% and 100% |
